Measured values of several laboratories.
Each numbered part is a random draw from the data of one study; scales do not carry over between parts.

Study 1
Target: RNA binding protein fox-1 homolog 2, RRM domain, GST-SBP tag (RBFOX2, Homo sapiens, UniProt O43251-10, residues 100-194)
Technique: RNA Bind-n-Seq
Form: RNA
Matrix: in vitro
Concentration: 365 nM
Notes: natural RNA segment, single round, ends assumed
Baseline: no-protein control
Reading: higher = stronger binding
All sequences stand within: GGGAGUUCUACAGUCCGACGAUC … UGGAAUUCUCGGGUGCCAA
Residues (chain): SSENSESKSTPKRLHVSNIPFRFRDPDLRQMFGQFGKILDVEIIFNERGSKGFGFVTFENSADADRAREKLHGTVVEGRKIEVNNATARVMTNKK
`UUCCUUGGGGGCAGGGACUUGACCAUGUGUCUAUUUCUGUAAUUCCCAAAUGCCUAACAGUGCAGUCAUUUCUCAAUAAAUACAUUUUAAAUAAAUGAACAAAUUCUGCC` — result for “RBNS enrichment (R)”: 0.619.
Under “RBNS enrichment (R)”, `CUUUAUUAUCUUAGUAGUUUCAUGCUGUGUAUGUACCAUAACCAACCUAUUGCCUAUGAGAAACAUGUAAGAUAAUGUAUUUACAGCCAUUGUUACAAGUUUAUAAUGUA` is recorded as 0.677.
`GAGCAGAAAAGAGCACUGAGAGCACUUGGGACCCCUGGAUCAGAGAGCAUCUGUGUGUCCUGCAGCCUCCUCUGAACUUGUGGUUCAUUCUCAGGCUGGGGUGGACUCAG`: “RBNS enrichment (R)” 0.194.
Under “RBNS enrichment (R)”, `ACAUGACAGUUAGCUCCUCUGACCUGUCUUUCUAGGUAACUGGAAAUGAACUUCAGGCUUGAUACAGAUCUUCUCCCUGUUGGUAUUACAUAUAUAGAGAUAAUUCUCAA` is recorded as 0.301.
`UCUCCUCUCCUGGCUCUACCAGUAAGACAAGAUUUAUUUAAUUUUAUUAUUUAAUCUGCACUGAUUUUCCUGUCUUUGGUGGGUACAGUGUGAUAGGACCACUGUCCUGG`: “RBNS enrichment (R)” 0.405.
`UCCUGCCUAAUUGCCCUGGCCAGAACUUCCAACACUAUGUUGAAUACGAGUGGUGAGAGAGGGCAUCCCUGUCUUGUGCCAGUUUUCAAAGGGAAUGCUUCCAGUUUUUG` — result for “RBNS enrichment (R)”: 0.996.
For `UACCUGGGGUGUGUAGACAGACAGACUGAGAGCUAUCAGCAUUUGAAGGCCCAGCCCUUGACUCUGAGACACAUUUGAAUUUUUUCUUUCCCAUCAAAUGGCAUUAACAA`, “RBNS enrichment (R)” read 4.
`GUGGUCCCACCAUUGCCUGCAGAUGUCCUUCCUCUGUUCACAGUUAGGUUUAGUGAGCAUUUCAUGUCAGGGAGCCUCUGGCCAGUGUCUCUGGGAGGUCACUAAUCUAC` — result for “RBNS enrichment (R)”: 0.793.
`AAGGUGCCAUCGCAGGGUCAGGCCUGCCCUGUCCCGAAGUGAUCUCCUGGAAGACAAGUGCCUUCUCCCUCCAUGGAUCUGUGAUCUUCCCAGCUCUGCAUCAACACAGC`: “RBNS enrichment (R)” 0.192.
Under “RBNS enrichment (R)”, `CAUCUGGGCCAUUUGCCUUACUUCUCUGGAGCAUACCCACCCUCAGUUACGUGCCAGACCUGGACCGCAUUCUCCUGCCCUGUCCUGGAGCUGGCCCCUGGCUGCCUGGA` is recorded as 0.425.
For `UUCCCUUUCUACCAACCCCGUGGGAGUUCUACAGUACGGCUGUCCUGACACGGCUCUUGUCUAGGACCAGGGCGGCACAUCCCACCAGCGCCAUCUUCCUGGACAGAGUG`, “RBNS enrichment (R)” read 0.392.
Under “RBNS enrichment (R)”, `CUGCGAUGGUGUACAGGGCUGUGAUGCCGAGCGUGAGGAUGGUGGAGAGGUAGAAGUUCCAGCCCAGGCAGAUGUGCACAAACAGAGCCCCCGCGUACAGGUCCAGCUGC` is recorded as 3.95.

Study 2
Target: Ras GTPase-activating protein-binding protein 1, full length (G3BP1, Homo sapiens, UniProt Q13283)
UniProt Q13283, sequence (whole entry, looked up): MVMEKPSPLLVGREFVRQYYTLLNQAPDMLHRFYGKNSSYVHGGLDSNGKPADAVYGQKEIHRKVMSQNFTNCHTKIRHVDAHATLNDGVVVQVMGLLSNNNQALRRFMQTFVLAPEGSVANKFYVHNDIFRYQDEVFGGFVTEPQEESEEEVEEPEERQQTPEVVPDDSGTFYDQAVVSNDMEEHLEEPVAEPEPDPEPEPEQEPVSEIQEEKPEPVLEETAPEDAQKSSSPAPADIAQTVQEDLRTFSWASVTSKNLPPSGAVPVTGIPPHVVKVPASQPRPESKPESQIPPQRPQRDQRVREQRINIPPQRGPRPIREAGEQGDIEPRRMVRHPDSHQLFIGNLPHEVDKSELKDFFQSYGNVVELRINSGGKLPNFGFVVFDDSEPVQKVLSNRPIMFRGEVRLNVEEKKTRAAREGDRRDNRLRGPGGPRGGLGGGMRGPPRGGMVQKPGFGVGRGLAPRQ
Technique: RNA Bind-n-Seq
Form: RNA
Matrix: in vitro
Concentration: 200 nM
Notes: whole 134-nt RNA, ends assumed
Together with: 150 mM LiCl
Baseline: input library
Reading: higher = stronger binding
All molecules: 7-deaza-guanosine replaces G
All sequences stand within: GGGAGUUCUACAGUCCGACGAUC … UGGAAUUCUCGGGUGUCAAGG
With `AGUCCUGUGCUACACAUCGUAUGUACCGAAUCGGGGCCCCGGGGCCCCGGGGCCCCGGAAAGUAUUAUGUUACGCCGUUCGGAUCUGCAC` the log2 enrichment was -0.0682.
`UCAAGUCCUGUGCUACACAUCGUAUGUACCGAAUCGGGAAAAAGGGAGGGAGGGAAAGUAUUAUGUUACGCCGUUCGGAUCUGCACUUCC` gave a log2 enrichment of -0.585.
For `AGUCCUGUGCUACACAUCGUAUGUACCGAAUCGGAAAAAGGUUUUUGGUUUUUUUGGAAAGUAUUAUGUUACGCCGUUCGGAUCUGCACU`, the log2 enrichment was -2.6.
With `CACAGACAACACGCACCCACACAGACACAGAUGGAAGGGGUUGGGAUGGGGACAGGGUGCACAGCAGGGCGGGGUAGGACCCCAGCCCCU` the log2 enrichment was 0.102.
`CCUGUGCUACACAUCGUAUGUACCGAAUCGGGGUUUUUUUGGUUUUUUUGGUUUUUUUGGGAAAGUAUUAUGUUACGCCGUUCGGAUCUG` gave a log2 enrichment of 0.647.
The log2 enrichment of `GUCCUGUGCUACACAUCGUAUGUACCGAAUCGGGGCCCCCGGGGCCCCCGGCCCCCGGAAAGUAUUAUGUUACGCCGUUCGGAUCUGCAC` is reported as -2.74.
`UGGGAGGUGGAUUUUGUUUAUUUUUUUAGCUCAUUUCCAGGGCUGGGAAUUUUUUUUUAAUAUGUGUCAUGAAUAAAGUUGUUUUUGAAA` gave a log2 enrichment of -0.345.
With `UGGCCCUGGUGGCAUGCGGGGAGGAAGAGGUGGCCUCAUCGAUCGUGGUGGUCCCGGUGGAAUGUUCAGAGGUGGCCGUGGUGGAGACAG` the log2 enrichment was 0.26.
For `GUCCUGUGCUACACAUCGUAUGUACCGAAUCGGGGAGGGGUUUUUGGGGUUUUUGGGGAAAGUAUUAUGUUACGCCGUUCGGAUCUGCAC`, the log2 enrichment was 0.36.
`UGGCCCUGGUGGCGUGCGGGGAGGAAGAGGUGGCCUCAUGGAUCGUGGUGGUCCCGGUGGAAUGUUCAGAGGUGGCCGUGGUGGAGACAG` has a log2 enrichment of 0.502.
For `UGUGCUACACAUCGUAUGUACCGAAUCGGGGAAAAAAAGGGGAAAAAAAGGGAAAAAAAGGGAAAGUAUUAUGUUACGCCGUUCGGAUCU`, the log2 enrichment was 0.39.

Study 3
Target: RING finger protein unkempt homolog, zinc fingers 1-6, GST-SBP tag (UNK, Homo sapiens, UniProt Q9C0B0, residues 30-357)
UniProt Q9C0B0, sequence (30-357, looked up): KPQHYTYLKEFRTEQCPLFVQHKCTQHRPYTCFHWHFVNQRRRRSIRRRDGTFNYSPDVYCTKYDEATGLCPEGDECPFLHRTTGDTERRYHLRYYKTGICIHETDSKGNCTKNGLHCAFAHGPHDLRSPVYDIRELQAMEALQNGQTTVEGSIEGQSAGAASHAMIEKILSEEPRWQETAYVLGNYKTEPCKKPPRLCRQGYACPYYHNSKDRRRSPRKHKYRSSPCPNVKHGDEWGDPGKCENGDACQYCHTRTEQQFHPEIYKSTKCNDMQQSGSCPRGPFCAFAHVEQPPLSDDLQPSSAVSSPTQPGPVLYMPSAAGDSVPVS
Technique: RNA Bind-n-Seq
Form: RNA
Matrix: in vitro
Concentration: not given
Notes: RNA with constant flanks, human-mouse chimeric sites, ends assumed
Baseline: input RNA pool
Reading: higher = stronger binding
All sequences stand within: GGGAGUUCUACAGUCCGACGAUC … CAACAGAGGAUUGAGCAUCA
`CAGACUGUGUCAUACUUUGUAGCAAGACACAUCAGACUUACAGAGCACCUGGCCACAUUCUAGGUUUGUGUUAUUUCUCAGCUAUGGAUAUGAUCAAAUGAGAACACUGCUUAACUAAUG` has a bound/input enrichment of 0.158 ratio.
`AACAGAUUGUCUUUAAGCAUUCCAAGCGAGAAUGCUGAAAUAGUCAUUGUUGCCCAUGUGCCUUCUGACUGAGCUUUAAUGCUGUUCAUCCUUGAUGCUUUCCUUCACUCCAGAAUUGUU` gave a bound/input enrichment of 0.186 ratio.
With `UCUUAACUUAUUCAUUUAACUUAUUUUUAUAGCUAGAGCAAUAUUGUUAGUCUUAGACAAUAGCUCACAUUUUUUGAGAAGCAUGCCCUCCCUGUCCAUUGGGCCCAUAACAUGACCCAG` the bound/input enrichment was 131 ratio.
`AAAGAGUGGAUAGAGUGUGCACACGGGAUCGGUGGGACCCGGGCGAAAAAGGAGUGCAAGAUAGAAUUCGAUGACUUCGUAGAGUGUUUGCUUCGGUACAAAACGAUGAGGCGAAUGCAU` has a bound/input enrichment of 0.364 ratio.
With `AAAGCCCAAGUAUUUUGAAAAAACUCGAACAGAUUUGACAAGGGUAGCCAGCUUGGAGUCUAGCAACUUGCCAAUGUUGCUUACCAAUUUGGGGGCUGUUUUUCUUUUCUUCUUUCAAAU` the bound/input enrichment was 0.244 ratio.
`GAUCAUGGAACCAGAAUAGAAAUGAAGAUGAGAUUACCCAGACGAGCCAAAACAGCUGCGCUACAGAAAAAGUAAACUAACCUUGCAGAGUUCCUUAAUGAAGAUACAAGUUAAGAGAGC` has a bound/input enrichment of 0.655 ratio.
For `AAAGUGAUGACUAUGUUUGUCCAACGACAGGUGUUUGCGGAGAGCAAAGAUGAGAUUGCUUUAGUCCUCUAUGGCACAGAUGGCACUGAUAAUGCCCUUGCUGGCAAGGACCAGUAUCAG`, the bound/input enrichment was 0.278 ratio.
The bound/input enrichment of `AGGAGGAGGUUAAAGGGUGAGAGUGGGGUGGAAGACUGUGUCAUGGCCCUAGAAACCCUGUUCAGUGUCCUGCUUUCUCUGUGCAGACUUAUGGCUCCUUACACGCCCUUUCUGACUGAG` is reported as 0.0466 ratio.
With `UAAGUCCUGUGCCAGCACUUCGCUCAUAAAGUUUUAAAUUCUGGACCAAUAGUGUUUAUCUUUAGAAUAUUGUAUCCAAUACUUUGCGUACUAUGUGACUCACUCUUACUGAUAAUAAAA` the bound/input enrichment was 9.22 ratio.
The bound/input enrichment of `CUGUGACCACAAGAUCCUACCUGAGUGUUCAGAUGGGUUGACUCCCUCUCCUUGCCUGCCUAGUUUCCCACUGCCCCCCCAUCCCCCAGUGUCGGCUGAGAUGUUGCCUCUGCACGGUUC` is reported as 1.31 ratio.
For `AGAGCCCAGGAUGUUGAUGCUACAAAUCCAAAUUACGAAAUUAUGUGUAUGAUCAGAGACUUCAGAGGGAGCUUGGAUUAUAGACCAUUAACAACAGCAGAUCCUAUUGAUGAACAUAGG`, the bound/input enrichment was 0.724 ratio.

Study 4
Target: Sal-like protein 4, full length isoform A (SALL4, Homo sapiens, UniProt Q9UJQ4, residues 1-1053)
UniProt Q9UJQ4, sequence (whole entry, looked up): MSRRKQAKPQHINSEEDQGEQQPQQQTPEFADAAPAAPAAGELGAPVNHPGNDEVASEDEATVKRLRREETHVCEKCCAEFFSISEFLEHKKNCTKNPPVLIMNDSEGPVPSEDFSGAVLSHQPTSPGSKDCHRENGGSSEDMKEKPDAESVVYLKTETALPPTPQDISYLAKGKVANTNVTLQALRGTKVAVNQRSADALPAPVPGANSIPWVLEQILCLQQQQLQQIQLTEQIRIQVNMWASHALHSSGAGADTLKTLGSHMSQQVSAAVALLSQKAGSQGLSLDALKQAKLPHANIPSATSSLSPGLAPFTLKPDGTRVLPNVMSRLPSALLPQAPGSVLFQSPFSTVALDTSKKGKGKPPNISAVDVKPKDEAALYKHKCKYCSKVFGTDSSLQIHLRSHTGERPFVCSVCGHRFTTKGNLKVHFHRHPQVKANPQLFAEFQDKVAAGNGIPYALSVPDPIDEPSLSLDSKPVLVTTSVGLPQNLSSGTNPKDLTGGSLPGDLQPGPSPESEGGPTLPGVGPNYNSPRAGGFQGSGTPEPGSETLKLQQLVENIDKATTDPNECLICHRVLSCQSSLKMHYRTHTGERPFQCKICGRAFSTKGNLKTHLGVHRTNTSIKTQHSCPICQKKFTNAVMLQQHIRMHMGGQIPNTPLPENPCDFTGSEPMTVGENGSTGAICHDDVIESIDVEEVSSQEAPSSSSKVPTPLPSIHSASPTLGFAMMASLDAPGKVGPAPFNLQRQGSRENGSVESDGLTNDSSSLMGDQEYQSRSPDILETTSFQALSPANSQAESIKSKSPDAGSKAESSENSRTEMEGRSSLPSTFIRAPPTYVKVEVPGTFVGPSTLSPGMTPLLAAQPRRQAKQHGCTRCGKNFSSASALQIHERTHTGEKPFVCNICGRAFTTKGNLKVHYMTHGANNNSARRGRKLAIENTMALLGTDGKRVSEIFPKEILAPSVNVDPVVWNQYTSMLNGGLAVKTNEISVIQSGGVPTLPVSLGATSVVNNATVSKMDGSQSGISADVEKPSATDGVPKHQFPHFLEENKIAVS
Technique: universal PBM
Form: double-stranded DNA, one strand shown
Matrix: in vitro
Concentration: 600 nM
Notes: 8-mer, flanks averaged, mean of replicates
Reading: higher = stronger binding
`AGATTAAC` has an E-score of 0.146.
For `AGCACCTA`, the E-score was -0.0916.
`GAACAACA` has an E-score of 0.00334.
`AATTCATC` gave an E-score of 0.173.
`GATTAGAC` has an E-score of 0.101.
`GCGAGGAC` gave an E-score of -0.246.
`ACACCCGT` gave an E-score of -0.204.
`CGTTAGCA` has an E-score of 0.0887.
The E-score of `AATGTGGA` is reported as 0.252.
The E-score of `GGCAAGTA` is reported as -0.0344.
For `CGATCTCC`, the E-score was -0.238.
For `AATCTTAA`, the E-score was 0.214.
`GTGCAGTA` gave an E-score of -0.0476.
With `AACTGCCT` the E-score was 0.0644.
With `GATTCACA` the E-score was 0.0663.
`CCCTGAAC` has an E-score of -0.0367.
With `TAAAAACA` the E-score was 0.278.
`GAGGGTAA` gave an E-score of -0.0699.
For `TACTCAGA`, the E-score was 0.0471.
`GAACGTCC` gave an E-score of -0.0858.
The E-score of `TCATTGAA` is reported as 0.181.
`GGTAGAAA` gave an E-score of -0.0436.
The E-score of `AGATGAAC` is reported as -0.0293.

Repeated from above (study 4):
`CGTTAGCA` has an E-score of 0.0887.
The E-score of `AATGTGGA` is reported as 0.252.
The E-score of `GGCAAGTA` is reported as -0.0344.
For `CGATCTCC`, the E-score was -0.238.
For `AATCTTAA`, the E-score was 0.214.
`GTGCAGTA` gave an E-score of -0.0476.
